Published values collected from several papers.
Parts stem from different laboratories: compare values within a part only.
UniProt A6NDY0, sequence (127-244, looked up): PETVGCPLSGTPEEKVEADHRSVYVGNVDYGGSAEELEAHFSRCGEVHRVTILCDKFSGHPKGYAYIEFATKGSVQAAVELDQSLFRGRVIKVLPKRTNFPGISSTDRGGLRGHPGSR

Study 1
Target: Interferon regulatory factor 7, full length, phosphomimetic (IRF7, Homo sapiens, UniProt Q92985, residues 1-503, S471D/S472D/S475D/S476D/S477D/S483D/S484D/S487D)
Technique: protein-binding microarray
Form: double-stranded DNA, one strand shown
Sample: in vitro
Concentration: 2200 nM top
Setting: 60-bp whole probe
Together with: salmon DNA 0.4 mg/ml
Baseline: random background probes
Direction: higher = stronger binding
All sequences stand within: GCCTAGCAC … GTCTTGATTCGCTTGACGCTGCTG
Construct (chain): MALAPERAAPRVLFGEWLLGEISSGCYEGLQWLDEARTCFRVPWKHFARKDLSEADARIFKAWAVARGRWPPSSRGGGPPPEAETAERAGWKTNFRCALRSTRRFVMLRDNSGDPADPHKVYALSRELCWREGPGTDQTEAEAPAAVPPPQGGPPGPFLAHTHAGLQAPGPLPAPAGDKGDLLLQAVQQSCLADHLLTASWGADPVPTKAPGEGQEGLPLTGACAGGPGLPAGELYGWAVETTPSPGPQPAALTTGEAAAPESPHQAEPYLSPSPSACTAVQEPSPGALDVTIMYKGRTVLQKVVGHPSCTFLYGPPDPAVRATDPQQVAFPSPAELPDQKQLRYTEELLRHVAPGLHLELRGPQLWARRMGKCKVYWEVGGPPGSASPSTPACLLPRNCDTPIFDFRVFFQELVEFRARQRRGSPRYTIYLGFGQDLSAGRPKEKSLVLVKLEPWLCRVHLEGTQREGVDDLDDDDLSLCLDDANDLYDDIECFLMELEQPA
Strand | fitted relative affinity [z-score]
TTAGGTTTCTGTCTCGGTTAGTGCTAG | 2.53
TTAGGTATCGGGTATAGGTTAGTGCTA | 0.17
TCAGTTTTAAATAGGGCACTGTGCTAG | 0.234
TTAGATAACAGTATCGATTAGTGCTAG | -0.0504
TCATCTGTCAGTTTTGAACTGTGCTAG | 1.14
GACGGTATCCTTTCCCTGACGTGCTAG | 1.38
GTAGATATCAGACTGGATTAGTGCTAG | -0.0628

Study 2
Target: Histone acetyltransferase KAT6A, both winged helices, GST fusion (KAT6A, Homo sapiens, UniProt Q92794, residues 1-181)
Technique: protein binding microarray
Form: double-stranded DNA, one strand shown
Sample: in vitro
Concentration: not given
Setting: 8-mer, flanks averaged, mean of 2 arrays, mostly near background
Baseline: not given
Direction: higher = stronger binding
Target sequence (chain): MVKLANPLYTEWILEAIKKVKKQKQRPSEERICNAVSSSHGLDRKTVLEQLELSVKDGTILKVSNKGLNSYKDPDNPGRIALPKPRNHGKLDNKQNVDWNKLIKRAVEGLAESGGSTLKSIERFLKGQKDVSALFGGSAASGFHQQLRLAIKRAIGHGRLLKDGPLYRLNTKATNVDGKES
Strand | E-score
GATCCACC | -0.0282
GATTCAAC | 0.0505
ACATTCAT | -0.122
CTGCACTC | -0.0943
GCTCTCGA | -0.05

Mixed results
Molecule | target | test | test system | conditions | how to read | quantity | value
PhoQ, residues 284 288 289 292 302 303 SLCLSL | PhoP, residues 12 14 15 18 19 IFFTR (Escherichia coli, UniProt P23836) | Sort-seq, refers to: YFP reporter | E. coli | PhoQ-PhoP variant library, together with: 10 µM Mg2+ | baseline: high Mg2+ state, higher = stronger signaling | fold induction | 2.27
AAAAAAAA (biotin) | Embryonic polyadenylate-binding protein 2, RRM domain (PABPN1L, Homo sapiens, UniProt A6NDY0, residues 127-244) | protein domain microarray | RNA, in vitro | not given, poly(A) 8-mer RNA, whole probe, immobilized GST-fusion domains, most near background | baseline: GST loading signal, higher = stronger binding | signal ratio | 16.1

For quick reference, copied from above (study 1):
Strand | fitted relative affinity [z-score]
TTAGGTATCGGGTATAGGTTAGTGCTA | 0.17
TCAGTTTTAAATAGGGCACTGTGCTAG | 0.234
